Experimental data pooled from the literature.
Every numbered part comes from another study and shows a few of its results, in no order. Changes are numbered by the printed parent chain.

Series 1 — technique: RNA Bind-n-Seq; molecule type: RNA; medium: in vitro; concentration: 200 nM; notes: whole 134-nt RNA, ends assumed; with: 150 mM KCl; relative to: input library; reading: higher = stronger binding
Target: Ras GTPase-activating protein-binding protein 1, full length (G3BP1, Homo sapiens, UniProt Q13283)
Sequence of UniProt Q13283 (whole entry, looked up): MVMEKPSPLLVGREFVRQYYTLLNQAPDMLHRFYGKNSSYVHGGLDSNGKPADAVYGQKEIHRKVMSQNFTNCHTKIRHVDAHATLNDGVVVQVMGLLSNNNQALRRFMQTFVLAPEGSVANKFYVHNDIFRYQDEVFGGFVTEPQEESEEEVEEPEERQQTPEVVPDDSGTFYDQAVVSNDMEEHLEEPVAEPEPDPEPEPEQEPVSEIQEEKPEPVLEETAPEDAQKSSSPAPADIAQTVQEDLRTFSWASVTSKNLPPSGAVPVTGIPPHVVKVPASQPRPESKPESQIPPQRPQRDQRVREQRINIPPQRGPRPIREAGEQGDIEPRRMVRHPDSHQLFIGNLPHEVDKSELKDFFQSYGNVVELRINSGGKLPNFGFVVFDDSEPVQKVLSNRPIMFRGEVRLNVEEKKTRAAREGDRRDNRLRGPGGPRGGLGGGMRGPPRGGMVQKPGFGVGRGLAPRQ
Shared flanks, not repeated: GGGAGUUCUACAGUCCGACGAUC … UGGAAUUCUCGGGUGUCAAGG
Sequence | log2 enrichment
GUCCUGUGCUACACAUCGUAUGUACCGAAUCGGGUUUUUUUGGGAAAGGGAAAAAGGGAAAGUAUUAUGUUACGCCGUUCGGAUCUGCAC | -0.622
UGGCCCUGGUGGCAUGCGGGGAGGAAGAGUUGGCCUCAUGGAUCGUGGUGGUCCCGGUGGAAUGUUCAGAGGUGGCCGUGGUGGAGACAG | 0.044
AGUCCUGUGCUACACAUCGUAUGUACCGAAUCGGUUUUGGGGUUUUGGGGUUUUGGGGAAAGUAUUAUGUUACGCCGUUCGGAUCUGCAC | -0.408
UCCUGUGCUACACAUCGUAUGUACCGAAUCGGCCCCCCGGGCCCCCCGGCCCCCCGGGGAAAGUAUUAUGUUACGCCGUUCGGAUCUGCA | -0.38
UGUGCUACACAUCGUAUGUACCGAAUCGGGGCCCCCCCGGGCCCCCCCGGGGCCCCCCCGGGGAAAGUAUUAUGUUACGCCGUUCGGAUC | -0.968
UUGGGCUGCCCAUCACCGUGGCCCAUGUGGAUGGCCAAACCCACAUGUUAUUUGGCUCUGACCGGAUGGAGCUGCUGGCGCACCUGCUGG | -1.49
CUCAAGUCCUGUGCUACACAUCGUAUGUACCGAAUCGGUUUGGUUUGGAAAGGAAAGUAUUAUGUUACGCCGUUCGGAUCUGCACUUCCA | -0.479

Series 2 — target: UBE2B UBC core domain (UniProt P63146); technique: yeast two-hybrid; medium: yeast; notes: mostly zero background; relative to: not given; reading: higher = stronger interaction
Sequence of UniProt P63146 (whole entry, looked up): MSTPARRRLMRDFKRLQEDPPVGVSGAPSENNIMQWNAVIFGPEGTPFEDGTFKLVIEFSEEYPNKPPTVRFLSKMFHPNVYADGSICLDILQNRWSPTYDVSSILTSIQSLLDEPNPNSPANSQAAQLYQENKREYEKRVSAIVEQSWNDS
B1: RNF103 RING domain (UniProt O00237); chain WPADMLHCTECVVCLENFENGCLLMGLPCGHVFHQNCIVMWLAGGRHCCPVCRWPSYKKKQPY
B2: BFAR RING domain (UniProt Q9NZS9); chain GPQISVSEFSCHCCYDILVNPTTLNCGHSFCRHCLALWWASSKKTECPECREKWEGFPKVS
B3: CNOT4 RING domain (UniProt O95628); chain MSRSPDAKEDPVECPLCMEPLEIDDINFFPCTCGYQICRFCWHRIRTDENGLCPACRKPYPED
B4: TRIM41 RING domain (UniProt Q8WV44); chain PVQTLQEEAVCAICLDYFTDPVSIGCGHNFCRVCVTQLWGGEDEEDRDELDREEEEEDGEEE
B5: RNF186 RING domain (UniProt Q9NXI6); chain HSGSTECDLECLVCREPYSCPRLPKLLACQHAFCAICLKLLLCVQDNTWSITCPLCRKVTAVPGGLI
Molecule | lacZ reporter activity
B1 (RNF103 RING domain) | 0
B2 (BFAR RING domain) | 0
LVKDFNPYITCYICKGYLIKPTTVTECLHTFCKTCIVQHFEDSNDCPRCGNQVHETNPLE (PCGF5 RING domain (UniProt Q86SE9)) | 0
ASPKIFQKTKCSICNSALELPSVHFLCGHSFHQHCFESYSESDADCPTCLPENRKVMDMI (VPS11 RING domain (UniProt Q9H270)) | 0
FAEQPSVKLCCQLCCSVFKDPVITTCGHTFCRRCALKSEKCPVDNVKLTVVVNNI (TRAF7 RING domain (UniProt Q6Q0C0)) | 0
B3 (CNOT4 RING domain) | 0
ASEEEFQFLRCQQCQAEAKCPKLLPCLHTLCSGCLEASGMQCPICQAPWPLGADTP (PML RING domain (UniProt P29590)) | 0
B4 (TRIM41 RING domain) | 0
B5 (RNF186 RING domain) | 0

Series 3 — technique: RNA Bind-n-Seq; molecule type: RNA; medium: in vitro; concentration: not given; notes: RNA with constant flanks, ends assumed; relative to: input RNA pool; reading: higher = stronger binding
Target: RING finger protein unkempt homolog, zinc fingers 1-6, GST-SBP tag (UNK, Homo sapiens, UniProt Q9C0B0, residues 30-357)
Sequence of UniProt Q9C0B0 (30-357, looked up): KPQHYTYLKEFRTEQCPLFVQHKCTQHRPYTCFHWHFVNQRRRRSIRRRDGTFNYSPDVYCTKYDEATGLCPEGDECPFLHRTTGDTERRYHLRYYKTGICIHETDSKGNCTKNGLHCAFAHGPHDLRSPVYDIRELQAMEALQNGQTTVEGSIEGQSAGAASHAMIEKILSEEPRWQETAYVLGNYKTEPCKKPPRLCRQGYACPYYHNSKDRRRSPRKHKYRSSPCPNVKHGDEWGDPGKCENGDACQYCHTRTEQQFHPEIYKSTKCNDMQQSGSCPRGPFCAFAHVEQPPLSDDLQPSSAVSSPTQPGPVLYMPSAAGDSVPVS
Shared flanks, not repeated: GGGAGUUCUACAGUCCGACGAUC … CAACAGAGGAUUGAGCAUCA
Sequence | bound/input enrichment
AUUGAACAGCACUAUUUUGAAGAUCGUGGUAAAGGCAGGCUGUCAUAGAGUUAUGUGUCCGUCUCAGGAGUCUUAACUUUUGAAAUAUGUUUUACUUGAAUGUUACAUUAGAUAUUGGUG | 3.12 ratio
CAGUCCAUACAGACUUGGGGGUGGUUUGGGGUAUUGCUGUGUGUUCUUUAUGCUUAUGUUCUCCGAGUAUGGUCAGAUGGGACAAGACCCCCUCCUGUCUUCUACAUGACAUGGAGAAAG | 0.31 ratio
GUGAUGUCUUCCAGACUCGGUGCAGUCACCGCCGUGAGUUUCUUGGUGUGACCAUUAUACUUCCGAAAUAGAACUGUCGAGCUGAGAACACGCGGUCCUUUGCUUUUGUUUUGUACUCAG | 0.2 ratio
AGGUCGCGGGCGCCACAGGUGGAAGAAGAAAGGUGCCACUUUGGCAUGAAGAUAGACUCACUCCGACGUCAAUCUUUUAAGCUGAGUGCAUUGUGAUUUCCAAUAAUUGAGGCAGUGGUU | 0.164 ratio
CUCUUUUUUUUCCACGGGGCUGUUUUUUUAAUUUGGCUGCAAUUGCAUGAAAUCCCAAUGGUGCCGACCAGUGGCGAUGGAUCUAGGAGUUUACCAACUGAGACAUUUUUCCAUUUCUUU | 0.591 ratio
UGAACUAAAGGAGUUAGCAUCUUUAUUUUUGUAUCAAAGAUAAAGGUUAUUUUGAAAAUUAUCCGGGUUUUUACAUAACUCUGGAAUCUGUUGCUUUUAUAAACAAAUUGUUCAAUUUUA | 10.7 ratio

Series 4 — technique: DHFR PCA, deep sequencing; medium: yeast; with: (+)-ABA 0 µM; relative to: wild-type fitted maximum; reading: higher = stronger binding
Target: ABI1, truncated, D143A, DHFR fusion (Arabidopsis thaliana)
Notes: methotrexate growth selection, single substitutions
Starting sequence: PYL1, truncated, DHFR fusion (Arabidopsis thaliana); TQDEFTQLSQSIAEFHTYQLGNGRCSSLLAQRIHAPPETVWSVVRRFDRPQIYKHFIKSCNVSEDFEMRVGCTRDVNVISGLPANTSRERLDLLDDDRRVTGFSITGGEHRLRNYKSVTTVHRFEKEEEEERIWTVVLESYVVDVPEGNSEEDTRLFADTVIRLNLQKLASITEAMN
Substitution | relative binding score [%]
I12E | 1.6
I79Y | 23.7
G81Y | 5.7
S171Y | 7.91
A30P | 1.37
D65Q | 10.8
I162C | 11.9
R69E | 19.6
T154A | 1.57
V44S | 0.468
V161W | 76.7
V137G | 1.21

Series 5 — target: CCND1, cyclin fold, Cln2 fusion (human); technique: yeast growth competition, sequencing; medium: yeast; notes: weak parent motif; relative to: not given; reading: higher = stronger binding
Starting sequence: MICAL3 docking peptide (human); LQLRRQLSFSEDS; partner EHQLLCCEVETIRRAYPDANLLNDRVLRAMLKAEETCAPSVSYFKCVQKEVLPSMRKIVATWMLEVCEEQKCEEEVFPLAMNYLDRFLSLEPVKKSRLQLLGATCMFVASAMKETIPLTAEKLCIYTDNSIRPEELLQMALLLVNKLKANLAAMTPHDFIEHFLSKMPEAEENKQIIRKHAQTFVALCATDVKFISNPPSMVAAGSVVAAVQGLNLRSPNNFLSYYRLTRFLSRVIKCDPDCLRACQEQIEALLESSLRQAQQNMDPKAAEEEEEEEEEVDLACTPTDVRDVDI
Substitution | normalised enrichment score
LQLRRPLSFSEDS [Q6P] | 0.533
LQLRRQLSVSEDS [F9V] | -0.229
LQLRRQLSFSENS [D12N] | 0.646
LQLRRQKSFSEDS [L7K] | -0.129
LQLRRQLSFSADS [E11A] | 0.276
LQLRRQISFSEDS [L7I] | 1.01
LQLSRQLSFSEDS [R4S] | 0.677
LQLRPQLSFSEDS [R5P] | 0.223
LQLRRVLSFSEDS [Q6V] | 0.676
LQLWRQLSFSEDS [R4W] | 0.188
LQLRRQLSASEDS [F9A] | 0.122
LQARRQLSFSEDS [L3A] | 3.04
LQMRRQLSFSEDS [L3M] | 0.129

Some of these lines once more (series 5):
Substitution | normalised enrichment score
LQLRRQLSFSENS [D12N] | 0.646
LQLRRQISFSEDS [L7I] | 1.01
LQLRRQLSASEDS [F9A] | 0.122
LQLRPQLSFSEDS [R5P] | 0.223
LQARRQLSFSEDS [L3A] | 3.04
LQLSRQLSFSEDS [R4S] | 0.677
LQLRRQKSFSEDS [L7K] | -0.129
